Published values of several laboratories.
Each numbered part is a random draw from the data of one study; scales do not carry over between parts. Substitutions count along the parent as printed.

Block 1 — method: RNA Bind-n-Seq; molecule type: RNA; medium: in vitro; tested at: 365 nM; relative to: no-protein control; reading: higher = stronger binding
Target: RNA binding protein fox-1 homolog 2, RRM domain, GST-SBP tag (RBFOX2, Homo sapiens, UniProt O43251-10, residues 100-194)
Setting: natural RNA segment, single round, ends assumed
All sequences stand within: GGGAGUUCUACAGUCCGACGAUC … UGGAAUUCUCGGGUGCCAA
Residues (chain): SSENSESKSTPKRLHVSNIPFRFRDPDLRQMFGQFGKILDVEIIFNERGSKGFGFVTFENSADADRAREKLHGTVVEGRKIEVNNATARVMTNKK
Sequence | RBNS enrichment (R)
UUUGAAAUUAGGUUAGAUAUACAUUUUUAAAUUUAACAUCUGGCUGGACAGUGUUCUAUUAACUCAUUGAAUGUGUUUCCUUUGUCUUGUGUUAAUAAAUAUUGAUGCUU | 1.04
UUGGAGUAAUUCAGUAUAGGUUCGUUUAAAAGAGAUUUUUAUAACUUCAGACAUGCAUCAGUAGGAAAUAACUUGAGAAAUUCAUAUGGUUAUGUUACAAAUUCAUAUUC | 1.73
AAUUUUAAUUUGCUGCUAAGCAAAGACUAGGGACAGGCAAAGAUAAUUUAUGGCAAAGUGUUUAAAUUGUUUAUACAUAAAUAAAGUCUCUAAAACUCCUGUGGACACUG | 0.682
CACACCUACCCCUACCGUCCAGCCUGGCCUCUUCCCUGAAUCAGCUUCAAGAUGGCACCAGCUCUUUGGGCCUAGGAUACUGCCGGGCCCCCCAAGGGGGUCCCCAGCAA | 0.371
AUGAAUGGCAAGCUGACAGCUUCUCCUGCUGUUUCCUUCCUCUCUUGGACUGAGUGGGUACGGCCAGCCACUCAGCCCAUUGGCAGCUGACAACGCAGACACGCUCUACG | 0.25
GUUCCCAUGGAGCUCAGGUCAGGCUCUGUAUUCAGACCGAGGGUUUGUGUGAGGCUCAGAGCAAAUGAACAAGUGCCAUUCAAGGGUUAGAAACUGCUCAGCCACAGGGU | 0.561
AAGAGCCCGUCUGCACCCCAGACCCAGGGCCUCAGGCCUCCAGCUCCUGGGAUCCGGGAGUCCAUCCCGGCCCAGCACCCCCAGCAUCCCCGUGUAUGGCCCCCCUGCAC | 3.15
CCAGCAGUCAAGUGCAUUCUCCAGUCCUUGCAAGAAGGAUCAGCCCUUUCUGUGCCAGCCUCGAUCGCCUUGUGCUUUGGUCUCUUUUUCUCCCCCCCGCCUGGAUCCUG | 0.469
UCUUUUUGACGUGUGUUUUUAGUUUAGAAGUGCUGUAUUCCACAAGGUUUAAGUCAGUGAGGUUGGAAGAUACCCUAUCUUUUUUAUUCAAAAAGCACAAUCAAUCUUUU | 0.542
AAAUAUUUUAGAUAAUUCUUAAACUAUGAACCUUCUUAACAUCACUGUCUUGCCAGAUUACCGACACUGUCACUUGACCAAUACUGACCCUCUUUACCUCGCCCACGCGG | 0.884
GUAUACAGUGCAGAGCCUUCUCAGAAGCACAUGAUAUUUUUGUAUUUCCUUUAUGUGAAUUUUUAAGCUGCGAAUCUGAUGGCCUUAAUUUCCUUUUUGACACUGAAAGU | 0.392
UCCCUCCACAGACAAUGUCCUCUGUUCAAUUCCUAACGCAAACUACAAUAAAUGGUGACACACGUUCAGAAGAAAUCUUCUUUGAGUCUCUUCUCUUUUGUGGAAAAAAA | 0.452

Block 2 — method: protein-binding microarray; molecule type: double-stranded DNA, one strand shown; medium: in vitro; tested at: 250 nM; setting: 60-bp whole probe; together with: salmon DNA 0.4 mg/ml; relative to: random background probes; reading: higher = stronger binding; all sequences stand within: GCCTAGCAC … GTCTTGATTCGCTTGACGCTGCTG
Target: Interferon regulatory factor 5, full length, phosphomimetic (IRF5, Homo sapiens, UniProt Q13568-2, residues 1-514, K96S/S451D/S453D/S456D/S462D)
Sequence | log fluorescence
AGATGTATGAGCCTCTGTTTGTGCTAG | -0.0523 z-score
GAAGGACTGGGTTTCGGGACGTGCTAG | 2.43 z-score
TTAGGTTTCCTTTCCCGTTAGTGCTAG | 1.27 z-score
GGGTCTGTGCCTTTTTTTTTGTGCTAG | -0.21 z-score
CAAGTTACGGAATTTCCCTCTGTGCTA | 0.564 z-score
TCATTTTTCTCAACCGTACTGTGCTAG | 1.17 z-score
GACGAACTGGGGTATCCAGACGTGCTA | -0.776 z-score
CTAGATTTCGGGTATCGATTAGTGCTA | 7.38 z-score
GACGGTACCGGTTTCGGGACGTGCTAG | 3.15 z-score
GACGAACTGGGGCTTCGAGACGTGCTA | -0.594 z-score
TTAGGTACCGGTCTCGGTTAGTGCTAG | 0.342 z-score
GACGGAGTGGACTATCGGGACGTGCTA | 0.95 z-score
GACGGTCTCCTACTGCTGACGTGCTAG | -0.401 z-score
GACGATTTCAGTTTCGAAACGTGCTAG | 8.05 z-score
TTAGGTCTCGGACTGGGTTTGTGCTAG | -0.491 z-score
TTAGGACTGCTTTTCGTTTAGTGCTAG | 1.04 z-score
TTAGGTCTCCTTTTCCCTTAGTGCTAG | 0.142 z-score
TCAGGTATCCTACTGCTTTAGTGCTAG | -0.084 z-score
TTAGGTTTCGGACAGGGTTAGTGCTAG | 5.55 z-score
GACGGTAACGACTTTCGGGACGTGCTA | 5.75 z-score
CCTAGTTTCATTCCTGATCTGTGCTAG | 4.79 z-score
GACGGTATCCGACTGCTGACGTGCTAG | -0.366 z-score
TTAGGTTTCGACTTTCGGTTAGTGCTA | 10.3 z-score
GACGGTCTGCTACTGCTGACGTGCTAG | -0.465 z-score

Block 3 — target: CCND3, cyclin fold, Cln2 fusion (human); method: yeast growth competition, sequencing; medium: yeast; setting: weak parent motif; relative to: not given; reading: higher = stronger binding
Starting sequence: SCAPER docking peptide (human); SNARRSLNFGGST
Substitution | normalised enrichment score
S6H | 0.166
F9S | 0.15
N8Q | 0.164
R4T | 0.152
G10S | 0.135
R5T | 0.102
N2W | 0.136
S6C | 0.199
G11T | 0.188
R4W | 0.0226
A3V | 0.0179
S12M | 0.0197
R5N | 0.0363
G10D | 0.0976
R4I | 0.152
S1H | 0.094
S6Q | 0.141
F9L | 0.0597
T13A | 0.147
G10A | 0.124
S6P | 0.189
L7E | 0.191

Block 4 — method: DHFR PCA, deep sequencing; medium: yeast; together with: (+)-ABA 58 µM; relative to: wild-type fitted maximum; reading: higher = stronger binding
Target: ABI1, truncated, D143A, DHFR fusion (Arabidopsis thaliana)
Setting: methotrexate growth selection, single substitutions
Starting sequence: PYL1, truncated, DHFR fusion (Arabidopsis thaliana); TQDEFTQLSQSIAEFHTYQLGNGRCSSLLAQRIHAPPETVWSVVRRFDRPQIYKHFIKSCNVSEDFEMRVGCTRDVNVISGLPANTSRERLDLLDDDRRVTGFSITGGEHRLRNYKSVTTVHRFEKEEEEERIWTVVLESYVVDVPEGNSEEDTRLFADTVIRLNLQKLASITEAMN; partner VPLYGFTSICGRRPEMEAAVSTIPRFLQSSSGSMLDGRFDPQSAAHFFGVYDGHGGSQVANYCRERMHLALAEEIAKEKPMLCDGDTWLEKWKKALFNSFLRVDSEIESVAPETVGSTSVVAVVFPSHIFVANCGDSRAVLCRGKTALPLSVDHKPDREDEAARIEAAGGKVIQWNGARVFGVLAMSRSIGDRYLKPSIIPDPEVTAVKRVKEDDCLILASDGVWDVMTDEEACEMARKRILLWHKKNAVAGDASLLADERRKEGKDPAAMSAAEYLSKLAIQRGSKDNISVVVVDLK
Substitution | relative binding score [%]
K54E | 0.494
T39C | 83.3
Q10P | 88
R69K | 88.4
H16M | 0.337
P37V | 82.2
G21C | 88.4
K168R | 82
G108I | -14.4
Q51R | 27.9
N165Q | 2.61
A175P | 72.3
G148E | 67.9
V100T | 60.1
T86S | 83.2
A13F | 74.6
P36A | 84.9
R74C | -3.42
G107N | 48.4
G23V | 44

Block 5 — method: RNA Bind-n-Seq; molecule type: RNA; medium: in vitro; tested at: 100 nM; relative to: input RNA pool; reading: higher = stronger binding
Target: RING finger protein unkempt homolog, zinc fingers 1-6, SBP tag (UNK, Homo sapiens, UniProt Q9C0B0, residues 30-357)
UniProt Q9C0B0, sequence (30-357, looked up): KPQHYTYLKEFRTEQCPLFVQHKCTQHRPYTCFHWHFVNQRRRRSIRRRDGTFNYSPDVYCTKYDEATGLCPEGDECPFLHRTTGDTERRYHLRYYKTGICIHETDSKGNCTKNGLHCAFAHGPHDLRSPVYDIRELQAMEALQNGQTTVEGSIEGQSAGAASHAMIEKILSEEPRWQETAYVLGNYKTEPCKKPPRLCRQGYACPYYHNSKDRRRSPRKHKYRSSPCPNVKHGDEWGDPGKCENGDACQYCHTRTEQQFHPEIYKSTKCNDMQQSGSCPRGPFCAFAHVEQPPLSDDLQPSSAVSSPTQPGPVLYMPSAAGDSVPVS
Setting: RNA with constant flanks, vertebrate orthologous sites, ends assumed
All sequences stand within: GGGAGUUCUACAGUCCGACGAUC … CAACAGAGGAUUGAGCAUCA
Sequence | bound/input enrichment [ratio]
AUGAUUUUCAAUCUCUUUUCCCUUACCCUGAUUUUAAAAGCCCUUCUUUUUUUUUUUUAGGCAUAUAUAGUAAUAUUAGCAGAAAGAUUUAAUUUGAGCAACUUUGAUUCUUAAAAGAGA | 0.499
AUCGCCUCUCAACCCCAUUUCCUCUGUCUCAUAGUGCAGAAGCACUCUUCAACUCUAUCUUAGCGGACUUGUUUUAAUUUUAGAGGAAUUUCCAGUACAGAUACUGUGAGCUGAUAUGGA | 0.687
AGACUUAUAUUGUGGCAUAUAGUCAACAUGGAAGUAGACCAGCUCUGCCGAUUUGAAAUUUAGAUUUUUUUAAAUUAUGUACUGGGGACAGGUCUUUGUCGCUUUACAUUGCUUCCUAGU | 2.78
UUGGUUGAAGGUAGAGGGGAGGGAUGGGCAGGACAGUGUGGAAUCUCUAAGAUGUUAUGGGUAGGUAGGGACACAGUUUUAAGUGAGCCUUUAUGUUAAAAACUUCUGGAGAGGUCUUCU | 0.752
UUUUUAUUGAUCAGGUCUGUAAAUGUGUACUAGAAAAUCAGAGUUUAUUUAUAAAUAGAAUAGUUUAUUUAAAGAGGUAUUUUCCUCCUUGAUAUCAUGGUAUGCAUAAUCCUGUGUUAC | 0.422
CACAUCUGGUGAUAUUUGGCCUGGCCUUUCAGCUUAUGAUAAUAGUCCUAGAUCACCCCAUAGUCCUUCACCUAUUGCUACACCACCUAGUCAGAGUUCAUCUUGCUCUGAUGCUCCCAU | 1.4
CAUUGUAUCCUGCUGUAUAAUAAACAAUCUUAGACAUUUAUCAACUAUUGAUACAAAUGUUAGUCCCUAACCACUUUUUAUAUGUUUUAAAUUUUUGAAAUUCAAGUGUACCUGCCAUAA | 2.67
GGGACGCUUCGAUGUAAAGAUUGAAGUUAAGAGCUGAUCACAAGCACAAACCUUUCCCACUAGCCAUUUAAAGAGUUAAGAAAAAGAUACAAAACAACCUACUAGUCUUGAACAAACUGU | 1.61
CCUGCUCCUCCUGGGUGUGUGACCGCGGGGGGAGUGUCCACCAGCGCUGCAGGGGGGCCGUGGUAUUUUUUUGCUGCCUCAGUCCCCAGAGCCUUCGAGCAGAAGUGGCAGUACGCUGUU | 0.277
AGCUUCUGGCGACAUUUGGCCCGGCCUUUCAGCGUAUGAUAACAGUCCAAGGUCACCCCAUAGUCCUUCUAUUGCCACCCCACCUAGCCAGAGUUCAUCUUGCUCUGAUGCCCCUCUGCU | 0.71
CAGCAUCCUUUCAUACCAUCCUGGGCCAGCACCAGGGUCGAUGUCUCAAUCCACCUAUGUUUAGAACAUUUUUUAAAUCGUUGUGUCUGAGCAUCUCAGAGUCAGGUGUGUCUUUGCAAA | 0.631

Some of these lines once more (block 5):
Sequence | bound/input enrichment [ratio]
CAUUGUAUCCUGCUGUAUAAUAAACAAUCUUAGACAUUUAUCAACUAUUGAUACAAAUGUUAGUCCCUAACCACUUUUUAUAUGUUUUAAAUUUUUGAAAUUCAAGUGUACCUGCCAUAA | 2.67
GGGACGCUUCGAUGUAAAGAUUGAAGUUAAGAGCUGAUCACAAGCACAAACCUUUCCCACUAGCCAUUUAAAGAGUUAAGAAAAAGAUACAAAACAACCUACUAGUCUUGAACAAACUGU | 1.61
CCUGCUCCUCCUGGGUGUGUGACCGCGGGGGGAGUGUCCACCAGCGCUGCAGGGGGGCCGUGGUAUUUUUUUGCUGCCUCAGUCCCCAGAGCCUUCGAGCAGAAGUGGCAGUACGCUGUU | 0.277
AGCUUCUGGCGACAUUUGGCCCGGCCUUUCAGCGUAUGAUAACAGUCCAAGGUCACCCCAUAGUCCUUCUAUUGCCACCCCACCUAGCCAGAGUUCAUCUUGCUCUGAUGCCCCUCUGCU | 0.71
CAGCAUCCUUUCAUACCAUCCUGGGCCAGCACCAGGGUCGAUGUCUCAAUCCACCUAUGUUUAGAACAUUUUUUAAAUCGUUGUGUCUGAGCAUCUCAGAGUCAGGUGUGUCUUUGCAAA | 0.631
